Measurements from different studies.
Numbered parts are unrelated; each lists some results of a single study. Changes are numbered by the printed parent chain.

Set 1
Target: Interferon regulatory factor 5, full length, phosphomimetic (IRF5, Homo sapiens, UniProt Q13568-2, residues 1-514, K96S/S451D/S453D/S456D/S462D)
Technique: protein-binding microarray
Form: double-stranded DNA, one strand shown
Sample: in vitro
Tested at: 250 nM
Setting: 60-bp whole probe
With: salmon DNA 0.4 mg/ml
Relative to: random background probes
Direction: higher = stronger binding
Constant ends, left off below: GCCTAGCAC … GTCTTGATTCGCTTGACGCTGCTG
Sequence	log fluorescence [z-score]
GACGGACTGGGTCTCGGTACGTGCTAG	-0.381
GACGGTCTCCTTATCCTGAGGTGCTAG	-0.311
TCCATTTTTACCCTCCTTACGTGCTAG	0.702
GACGGACTGAGTTTCGAGACGTGCTAG	3.94
TTAGGTTTCGGACTGGATTAGTGCTAG	5.75
GAGGAGGGGCTGTTACTCTCGTGCTAG	-0.355
TGAGGTTTCGACTATCGGTTAGTGCTA	9.01
TTAGGTATCGACTATCGGGTAGTGCTA	5.85
ATTCCTTTGCCTCCAGGCGCGTGCTAG	-0.0152
TTAGAACTGGGGTCTGGATTAGTGCTA	-0.323
GACGGTTTCGGTATCGGAACGTGCTAG	9.99
CCAAACCTGTGCGCCGTGCCGTGCTAG	-0.427
GACGATTTCCGTATCGAGACGTGCTAG	2.03
GGCGATATCAGTTTCGAGACGTGCTAG	6.75
TCACTTTCCCCTTCCTAACTGTGCTAG	2.83
TTAGGTTACGGTTCCGGTTAGTGCTAG	1.19
TTAGATATCGACTATCGGTTAGTGCTA	7.63
TTAGTTTTCATTATTGTGTCGTGCTAG	3.07
TTCGATTTCAGTATCGATTAGTGCTAG	8.67
TTAGGTCTCGGTCTAGGTTAGTGCTAG	0.387
CTCCCTTGAGGTTTTCTCTGGGTGCTA	-0.434
TTGCTTCTATAGGCTAGAATCGTGCTA	0.374

Set 2
Target: Prothrombin, mature alpha-thrombin (F2, Homo sapiens, UniProt P00734)
Technique: aptamer microarray, sandwich
Form: DNA with 2'F-ANA
Sample: in vitro
Tested at: 200 nM
Setting: whole 15-mer aptamer, many near background
With: Cy3 exosite-II aptamer, 400 nM
Direction: higher = stronger binding
Sequence: GGTTGGTGTGGTTGG
Modification	mean fluorescence intensity [a.u.]
2'F-ANA at 1 2 3 4 7 9 11 12 14 15	67.8
2'F-ANA at 4 5 6 7 9 10 12 13 14 15	49.1
2'F-ANA at 2 5 7 12 13 14	57.1
2'F-ANA at 1 3 5 6 8 10 12 15	50.2
2'F-ANA at 1 2 3 4 6 8 12 14 15	102
2'F-ANA at 5 6 7 9 13 14 15	45.7
2'F-ANA at 1 2 5 6 10 15	49
2'F-ANA at 3 4 5 6 7 8 9 10 12 14	50.1
2'F-ANA at 1 2 9 10 11 12 14	70.4
2'F-ANA at 1 6 8 9 10 11 12 13 14 15	53.9
2'F-ANA at 3 7 8 10 12 15	796
2'F-ANA at 3 4 5 8 10 13 14 15	194
2'F-ANA at 4 7 8 12 13	533
2'F-ANA at 1 3 4 7 8 9 10 13 14 15	60.9
2'F-ANA at 5 6 9 10 12	51.1
2'F-ANA at 2 3 4 5 6 7 9 10	48.1
2'F-ANA at 3 5 8 9 13 14	55.9
2'F-ANA at 1 2 4 5 6 10 11	43.1
2'F-ANA at 1 2 4 5 6 7 8 11 12 14	51.6
2'F-ANA at 1 5 6 9 11 14	54.3

Set 3
Target: UBE2J1 UBC core domain (UniProt Q9Y385)
Technique: yeast two-hybrid
Sample: yeast
Setting: mostly zero background
Relative to: not given
Direction: higher = stronger interaction
B1: NEURL1 RING domain (UniProt O76050); chain VTPGLGQWSDECTICYEHAVDTVIYTCGHMCLCYACGLRLKKALHACCPICRRPIKDIIKT
B2: TRIM5 RING domain (UniProt Q9C035); chain ILVNVKEEVTCPICLELLTQPLSLDCGHSFCQACLTANHKKSMLDKGESSCPVCRISYQPENIRP
B3: TRIM13 RING domain (UniProt O60858); chain MELLEEDLTCPICCSLFDDPRVLPCSHNFCKKCLEGILEGSVRNSLWRPAPFKCPTCRKETSATGINS
B4: TRIML1 RING domain (UniProt Q8N9V2); chain LMENLREELTCFICLDYFSSPVTTECGHSFCLVCLLRSWEEHNTPLSCPECWRTLEGPHFQS
B5: TRIM5 RING domain (UniProt Q9C035); chain LREVKLSPEGQKVDHCARHGEKLLLFCQEDGKVICWLCERSQEHRGHHTFLTEEVAREYQVKL
B6: RNF111 RING domain (UniProt Q6ZNA4); chain EGTEEDTEEKCTICLSILEEGEDVRRLPCMHLFHQVCVDQWLITNKKCPICRVDIEAQLPSE
B7: SH3RF2 RING domain (UniProt Q8TEC5); chain DDLTLLDLLECPVCFEKLDVTAKVLPCQHTFCKPCLQRVFKAHKELRCPECRTPVFSNIEAL
B8: RNF38 RING domain (UniProt Q9H0F5); chain PNNHQSEQTLCVVCMCDFESRQLLRVLPCNHEFHAKCVDKWLKANRTCPICRADASEVHRDS
Residues (chain): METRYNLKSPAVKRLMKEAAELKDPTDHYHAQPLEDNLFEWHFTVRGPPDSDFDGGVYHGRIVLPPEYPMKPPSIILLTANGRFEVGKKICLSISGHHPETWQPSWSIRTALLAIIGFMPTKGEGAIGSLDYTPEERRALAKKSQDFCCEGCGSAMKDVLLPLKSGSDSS
Molecule	lacZ reporter activity
B1 (NEURL1 RING domain)	0
DHGAVGQEMCCPICCSEYVKGEVATELPCHHYFHKPCVSIWLQKSGTCPVCRCMFPPPL (PJA1 RING domain (UniProt Q8NG27))	0
B2 (TRIM5 RING domain)	0
B3 (TRIM13 RING domain)	0
ASLPTSEEDLCPICYAHPISAVFQPCGHKSCKACINQHLMNNKDCFFCKTTIVSVEDWE (RNF123 RING domain (UniProt Q5XPI4))	0
MPIRALCTICSDFFDHSRDVAAIHCGHTFHLQCLIQWFETAPSRTCPQCRIQVGKRTIIN (TRAIP RING domain (UniProt Q9BWF2))	0
B4 (TRIML1 RING domain)	0
B5 (TRIM5 RING domain)	0
B6 (RNF111 RING domain)	0
B7 (SH3RF2 RING domain)	0
QVDKAVFHMQSVKCLKCQEQKRAVLPCQHAALCELCAEGSECPICQPGRAHTLQS (UNK RING domain (UniProt Q9C0B0))	0
B8 (RNF38 RING domain)	0

Set 4
Target: CCNB3, cyclin fold, Cln2 fusion (human)
Technique: yeast growth competition, sequencing
Sample: yeast
Setting: strong parent motif
Relative to: not given
Direction: higher = stronger binding
Starting sequence: RBL2 docking peptide (human); STTRRRLFVENDS; partner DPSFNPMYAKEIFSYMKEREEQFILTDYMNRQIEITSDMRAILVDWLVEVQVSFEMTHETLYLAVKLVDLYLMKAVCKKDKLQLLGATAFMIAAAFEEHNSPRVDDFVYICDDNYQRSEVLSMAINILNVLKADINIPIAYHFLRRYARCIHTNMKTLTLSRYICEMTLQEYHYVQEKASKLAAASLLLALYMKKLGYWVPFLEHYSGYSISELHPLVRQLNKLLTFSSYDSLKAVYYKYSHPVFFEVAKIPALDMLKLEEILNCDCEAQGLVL
Change	normalised enrichment score
STTRRRLFVEADS [N11A]	0.51
STTRRREFVENDS [L7E]	0.248
STRRRRLFVENDS [T3R]	-0.0304
STTRRRLFVECDS [N11C]	1.15
STCRRRLFVENDS [T3C]	2.34
STTERRLFVENDS [R4E]	-0.174
STTRRRLMVENDS [F8M]	-0.337
STTRRHLFVENDS [R6H]	-0.164
STTRRRLPVENDS [F8P]	0.513
STTHRRLFVENDS [R4H]	0.593
STTRRRLFVENDY [S13Y]	0.863
STTRRRFFVENDS [L7F]	0.417
STTRRRLGVENDS [F8G]	0.0676

Repeated from above (set 2):
Modification	mean fluorescence intensity [a.u.]
2'F-ANA at 1 2 4 5 6 10 11	43.1
2'F-ANA at 5 6 7 9 13 14 15	45.7
2'F-ANA at 1 3 5 6 8 10 12 15	50.2
2'F-ANA at 3 5 8 9 13 14	55.9
